Published values of several laboratories.
Lines come from different studies, so protocols differ. pIC50, pKd: −log10 of the molar value.
gag-pol integrase: Gag-Pol polyprotein, integrase (gag-pol, Human immunodeficiency virus 1, UniProt P12497)
Sequence of UniProt O43614 (whole entry, looked up): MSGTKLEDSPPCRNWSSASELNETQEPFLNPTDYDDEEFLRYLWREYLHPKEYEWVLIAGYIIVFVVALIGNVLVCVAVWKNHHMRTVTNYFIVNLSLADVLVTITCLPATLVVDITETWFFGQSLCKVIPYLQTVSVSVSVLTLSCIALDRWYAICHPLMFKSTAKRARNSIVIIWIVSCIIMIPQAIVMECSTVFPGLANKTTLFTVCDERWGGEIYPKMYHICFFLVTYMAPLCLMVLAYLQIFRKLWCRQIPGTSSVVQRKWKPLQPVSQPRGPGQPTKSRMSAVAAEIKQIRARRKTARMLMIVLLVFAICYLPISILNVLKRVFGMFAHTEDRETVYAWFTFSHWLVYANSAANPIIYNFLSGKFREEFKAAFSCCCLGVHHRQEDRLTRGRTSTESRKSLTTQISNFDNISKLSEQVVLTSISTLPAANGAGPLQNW
Sequence of UniProt P35367 (whole entry, looked up): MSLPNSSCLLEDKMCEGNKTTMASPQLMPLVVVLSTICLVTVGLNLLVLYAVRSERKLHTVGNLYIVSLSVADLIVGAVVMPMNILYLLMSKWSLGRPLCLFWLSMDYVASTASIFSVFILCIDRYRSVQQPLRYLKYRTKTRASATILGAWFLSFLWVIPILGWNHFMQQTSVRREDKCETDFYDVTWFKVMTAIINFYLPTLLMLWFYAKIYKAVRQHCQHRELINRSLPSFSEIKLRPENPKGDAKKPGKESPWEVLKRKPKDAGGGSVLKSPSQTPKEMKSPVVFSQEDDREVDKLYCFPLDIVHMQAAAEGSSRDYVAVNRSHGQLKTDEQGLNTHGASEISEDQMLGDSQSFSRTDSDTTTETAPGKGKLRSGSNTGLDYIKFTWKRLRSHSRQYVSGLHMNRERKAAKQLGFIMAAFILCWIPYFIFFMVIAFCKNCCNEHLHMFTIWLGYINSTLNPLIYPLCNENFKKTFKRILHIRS
Sequence of UniProt P35462 (whole entry, looked up): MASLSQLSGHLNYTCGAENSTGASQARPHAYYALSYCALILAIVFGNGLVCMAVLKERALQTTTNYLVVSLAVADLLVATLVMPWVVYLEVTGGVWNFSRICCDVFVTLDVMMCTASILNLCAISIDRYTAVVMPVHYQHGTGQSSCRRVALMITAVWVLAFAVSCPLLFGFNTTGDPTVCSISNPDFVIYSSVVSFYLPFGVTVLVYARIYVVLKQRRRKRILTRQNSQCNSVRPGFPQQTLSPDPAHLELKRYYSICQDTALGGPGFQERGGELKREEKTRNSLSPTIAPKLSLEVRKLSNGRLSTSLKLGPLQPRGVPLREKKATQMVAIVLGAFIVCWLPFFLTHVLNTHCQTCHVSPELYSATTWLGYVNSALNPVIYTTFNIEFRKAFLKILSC
Sequence of UniProt Q8NEW0 (whole entry, looked up): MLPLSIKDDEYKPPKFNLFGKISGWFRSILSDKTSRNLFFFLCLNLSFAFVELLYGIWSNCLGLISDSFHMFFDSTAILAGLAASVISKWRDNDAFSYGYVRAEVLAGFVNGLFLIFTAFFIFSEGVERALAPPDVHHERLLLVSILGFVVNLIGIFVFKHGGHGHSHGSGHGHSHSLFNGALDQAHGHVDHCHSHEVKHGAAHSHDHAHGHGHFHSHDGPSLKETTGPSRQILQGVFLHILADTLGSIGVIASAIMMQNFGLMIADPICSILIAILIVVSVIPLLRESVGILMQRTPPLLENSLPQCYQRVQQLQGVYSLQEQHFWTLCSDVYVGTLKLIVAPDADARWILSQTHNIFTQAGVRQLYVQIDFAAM
Sequence of UniProt Q07820 (whole entry, looked up): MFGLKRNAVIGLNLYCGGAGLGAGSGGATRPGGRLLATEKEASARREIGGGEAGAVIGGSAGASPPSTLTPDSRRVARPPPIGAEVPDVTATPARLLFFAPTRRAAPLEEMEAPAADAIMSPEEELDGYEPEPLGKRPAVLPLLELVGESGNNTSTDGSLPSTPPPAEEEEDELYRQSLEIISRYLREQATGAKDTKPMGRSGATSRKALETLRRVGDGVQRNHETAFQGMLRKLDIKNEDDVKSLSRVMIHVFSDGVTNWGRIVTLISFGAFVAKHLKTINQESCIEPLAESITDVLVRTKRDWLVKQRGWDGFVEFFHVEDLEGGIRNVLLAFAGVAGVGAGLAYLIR
Sequence of UniProt P51813 (whole entry, looked up): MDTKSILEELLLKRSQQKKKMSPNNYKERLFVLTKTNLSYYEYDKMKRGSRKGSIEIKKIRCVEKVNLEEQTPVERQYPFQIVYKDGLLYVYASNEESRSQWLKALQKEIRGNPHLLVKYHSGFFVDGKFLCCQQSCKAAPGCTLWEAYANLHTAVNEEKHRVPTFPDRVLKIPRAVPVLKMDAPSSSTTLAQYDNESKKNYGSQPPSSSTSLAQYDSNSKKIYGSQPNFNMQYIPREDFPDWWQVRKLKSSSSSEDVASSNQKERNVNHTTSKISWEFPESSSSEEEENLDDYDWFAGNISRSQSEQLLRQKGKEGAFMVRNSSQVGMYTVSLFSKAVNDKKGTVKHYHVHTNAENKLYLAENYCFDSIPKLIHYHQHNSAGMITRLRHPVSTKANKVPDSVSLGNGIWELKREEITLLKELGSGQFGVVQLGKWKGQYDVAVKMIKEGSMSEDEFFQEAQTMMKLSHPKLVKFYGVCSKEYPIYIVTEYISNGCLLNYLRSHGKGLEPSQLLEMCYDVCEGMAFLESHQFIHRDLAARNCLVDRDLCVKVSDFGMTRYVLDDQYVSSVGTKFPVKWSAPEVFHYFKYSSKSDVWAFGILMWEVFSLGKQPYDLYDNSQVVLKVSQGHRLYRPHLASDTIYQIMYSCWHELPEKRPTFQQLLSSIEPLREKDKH
Sequence of UniProt Q92743 (whole entry, looked up): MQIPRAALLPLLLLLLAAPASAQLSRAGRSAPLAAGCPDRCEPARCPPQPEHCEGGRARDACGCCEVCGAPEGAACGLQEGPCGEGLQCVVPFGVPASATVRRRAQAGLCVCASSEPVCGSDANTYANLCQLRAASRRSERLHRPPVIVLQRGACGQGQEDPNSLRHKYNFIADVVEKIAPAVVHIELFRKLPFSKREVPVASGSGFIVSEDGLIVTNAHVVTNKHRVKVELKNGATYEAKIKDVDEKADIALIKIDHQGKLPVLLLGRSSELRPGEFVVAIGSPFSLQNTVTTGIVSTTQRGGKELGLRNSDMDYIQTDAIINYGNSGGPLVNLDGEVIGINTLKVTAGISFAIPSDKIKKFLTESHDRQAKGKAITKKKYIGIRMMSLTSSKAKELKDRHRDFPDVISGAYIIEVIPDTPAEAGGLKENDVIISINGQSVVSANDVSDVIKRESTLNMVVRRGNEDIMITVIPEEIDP

`C[C@H](NC(=O)[C@@H](NC(=O)[C@H](CO)NC(=O)[C@H](Cc1c[nH]cn1)NC(=O)[C@@H]1CCCN1C(=O)[C@H](CC(=O)O)NC(=O)[C@H](CCC(N)=O)NC(=O)[C@H](Cc1ccc(OP(=O)(O)O)cc1)NC(=O)[C@H](Cc1c[nH]cn1)NC(=O)[C@@H]1CCCN1C(=O)[C@H](CC(=O)O)NC(=O)[C@H](CCCNC(=N)N)NC(=O)[C@H](CO)NC(=O)[C@@H]1CCCN1C(=O)[C@H](C)NC(=O)[C@@H]1CCCN1C(=O)[C@H](CC(N)=O)NC(=O)c1ccc2c(c1)C(=O)OC21c2ccc(N(C)C)cc2Oc2cc(N(C)C)ccc21)[C@@H](C)O)C(=O)N[C@@H](CC(=O)O)C(=O)O` gave a pKd of 5.97 (Cytoplasmic tyrosine-protein kinase BMX, SH2 domain (BMX, Homo sapiens, UniProt P51813); binding).
With `NNC(=O)c1cc(-c2ccc(Cl)cc2)n[nH]1` the pIC50 was less than 4.30 (Gag-Pol polyprotein, integrase with LEDGF/p75 (gag-pol, Human immunodeficiency virus 1, UniProt P12497); LEDGF/p75-integrase interaction, inhibitor, AlphaScreen).
Under Kd, `CC[C@H](C)[C@H](NC(=O)[C@H](CNC(=O)CCl)NC(C)=O)C(=O)N[C@@H](C)C(=O)N[C@@H](CCC(N)=O)C(=O)N[C@@H](CCC(=O)O)C(=O)N[C@@H](CC(C)C)C(=O)N[C@@H](CCCNC(=N)N)C(=O)N[C@@]1(C)CCC/C=C\CCC[C@@](C)(C(=O)N[C@@H](Cc2ccccc2)C(=O)N[C@@H](CC(N)=O)C(=O)N[C@@H](C)C(=O)N[C@@H](Cc2ccc(O)cc2)C(=O)N[C@@H](Cc2ccc(O)cc2)C(=O)N[C@@H](C)C(=O)N[C@@H](CCCNC(=N)N)C(=O)N[C@@H](CCCNC(=N)N)C(N)=O)NC(=O)[C@H](CC(=O)O)NC(=O)CNC(=O)[C@H]([C@@H](C)CC)NC1=O` is recorded as “no binding” (MCL1 (Homo sapiens, UniProt Q07820); isothermal titration calorimetry; 25 °C, 10% DMSO).
With `COc1ncccc1-c1cnn2ccc(N3CCN(C(=O)OC(C)C)CC3)nc12` the pIC50 was less than 4.52 (HRH1 (Homo sapiens, UniProt P35367); liability screen).
With `CC(C)C[C@H](NC(=O)[C@H](CC(=O)O)NC(=O)[C@H](CC(=O)O)NC(=O)[C@H](CC(=O)O)NC(=O)[C@@H](NC(=O)[C@H](Cc1c[nH]c2ccccc12)NC(=O)[C@@H](N)CCC(=O)O)[C@@H](C)O)C(=O)N[C@@H](CO)C(=O)N[C@H](C(=O)N[C@@H](CC(C)C)C(=O)N[C@@H](C)C(=O)O)C(C)C` the pKd was 5.01 (Serine protease HTRA1, PDZ domain (Homo sapiens, UniProt Q92743); isothermal titration calorimetry; isolated PDZ domain; pH 8.0).
For `CC(=O)c1ccc(/N=N/c2ccc(C[P+](c3ccccc3)(c3ccccc3)c3ccccc3)cc2)cc1`, the pIC50 was less than 4.00 (gag-pol integrase; strand transfer activity, inhibitor; wild-type integrase).
With `C[C@H]1CN(c2n[nH]c3nc(N[C@H]4CC[C@H](NS(=O)(=O)CCC(F)(F)F)CC4)ncc23)CCO1` the pIC50 was no more than 4.70 (Zinc transporter 7 (Homo sapiens, UniProt Q8NEW0); biochemical).
`Cc1[nH]c(C)c(S(=O)(=O)Nc2ccc(S(F)(F)(F)(F)F)cc2)c1C(=O)N1CCC(F)(F)C1` gave a Kb of 0.81 µM (DRD3 (Homo sapiens, UniProt P35462); β-arrestin recruitment, allosteric modulator, operational model of allostery; together with: pramipexole).
`COc1cc(Nc2ncc(F)c(Nc3ccc4c(n3)NC(=O)C(C)(C)O4)n2)cc(OC)c1OC` has a pIC50 of less than 5.00 (HCRTR2 (Homo sapiens, UniProt O43614)).
With `O=C(N/N=C/c1ccc(O)cc1O)c1ccncc1` the pIC50 was less than 4.00 (gag-pol integrase; strand transfer activity, inhibitor; wild-type integrase).

For quick reference, copied from above:
With `O=C(N/N=C/c1ccc(O)cc1O)c1ccncc1` the pIC50 was less than 4.00 (gag-pol integrase; strand transfer activity, inhibitor; wild-type integrase).
